Assay results of several laboratories.
Numbers after ± are the reported error.
Sequence of UniProt P20813 (whole entry, looked up): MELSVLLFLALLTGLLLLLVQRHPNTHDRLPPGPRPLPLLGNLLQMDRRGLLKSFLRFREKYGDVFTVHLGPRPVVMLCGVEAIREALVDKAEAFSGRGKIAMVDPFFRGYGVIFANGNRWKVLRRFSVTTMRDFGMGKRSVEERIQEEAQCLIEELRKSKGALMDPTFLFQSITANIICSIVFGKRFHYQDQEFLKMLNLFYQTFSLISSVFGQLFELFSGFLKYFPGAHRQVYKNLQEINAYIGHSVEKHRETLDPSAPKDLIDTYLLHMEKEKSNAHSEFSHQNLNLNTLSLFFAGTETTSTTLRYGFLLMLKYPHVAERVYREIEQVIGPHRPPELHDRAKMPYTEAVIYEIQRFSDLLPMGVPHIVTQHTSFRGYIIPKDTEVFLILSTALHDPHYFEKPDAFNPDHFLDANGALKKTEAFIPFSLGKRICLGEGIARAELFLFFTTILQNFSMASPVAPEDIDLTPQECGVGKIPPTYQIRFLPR
Sequence of UniProt Q12809 (whole entry, looked up): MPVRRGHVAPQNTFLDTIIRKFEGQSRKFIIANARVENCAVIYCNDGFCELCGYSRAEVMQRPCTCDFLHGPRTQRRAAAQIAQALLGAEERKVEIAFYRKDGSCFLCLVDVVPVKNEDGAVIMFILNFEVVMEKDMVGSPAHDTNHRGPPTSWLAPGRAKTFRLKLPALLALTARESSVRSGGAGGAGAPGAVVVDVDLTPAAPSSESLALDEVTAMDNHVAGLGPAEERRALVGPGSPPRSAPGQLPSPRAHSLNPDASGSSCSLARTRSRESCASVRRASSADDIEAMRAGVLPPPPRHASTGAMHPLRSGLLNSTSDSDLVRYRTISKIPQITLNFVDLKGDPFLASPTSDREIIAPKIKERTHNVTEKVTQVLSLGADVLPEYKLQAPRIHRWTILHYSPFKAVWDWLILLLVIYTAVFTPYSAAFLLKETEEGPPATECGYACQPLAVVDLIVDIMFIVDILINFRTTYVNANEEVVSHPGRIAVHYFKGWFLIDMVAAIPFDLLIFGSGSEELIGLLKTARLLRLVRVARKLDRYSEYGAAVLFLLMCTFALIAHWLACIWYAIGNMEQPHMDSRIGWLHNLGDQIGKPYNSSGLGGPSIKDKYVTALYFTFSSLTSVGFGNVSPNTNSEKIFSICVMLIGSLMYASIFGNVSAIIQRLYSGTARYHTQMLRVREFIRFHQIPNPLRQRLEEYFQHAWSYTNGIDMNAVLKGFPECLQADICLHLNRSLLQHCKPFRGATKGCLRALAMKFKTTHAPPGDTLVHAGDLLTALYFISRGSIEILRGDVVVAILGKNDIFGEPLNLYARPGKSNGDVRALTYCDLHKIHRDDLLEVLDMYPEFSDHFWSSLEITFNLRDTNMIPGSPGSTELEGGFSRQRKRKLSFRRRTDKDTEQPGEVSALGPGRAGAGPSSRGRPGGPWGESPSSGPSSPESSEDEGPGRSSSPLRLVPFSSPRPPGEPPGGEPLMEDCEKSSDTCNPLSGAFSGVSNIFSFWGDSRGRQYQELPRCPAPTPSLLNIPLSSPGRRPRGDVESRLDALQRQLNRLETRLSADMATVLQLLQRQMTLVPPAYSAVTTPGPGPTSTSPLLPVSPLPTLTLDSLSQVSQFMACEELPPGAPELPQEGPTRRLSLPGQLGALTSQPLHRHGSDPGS
Sequence of UniProt Q9CPV9 (whole entry, looked up): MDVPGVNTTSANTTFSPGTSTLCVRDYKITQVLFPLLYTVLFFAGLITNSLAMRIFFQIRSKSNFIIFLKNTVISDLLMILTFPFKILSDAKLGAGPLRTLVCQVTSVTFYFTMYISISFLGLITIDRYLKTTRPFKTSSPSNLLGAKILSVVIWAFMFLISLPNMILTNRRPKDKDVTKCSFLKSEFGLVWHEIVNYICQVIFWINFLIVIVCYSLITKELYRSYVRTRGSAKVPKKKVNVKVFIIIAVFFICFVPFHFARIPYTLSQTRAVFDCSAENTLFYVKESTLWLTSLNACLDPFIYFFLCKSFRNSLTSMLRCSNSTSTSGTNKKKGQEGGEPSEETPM
Sequence of UniProt P11980 (whole entry, looked up): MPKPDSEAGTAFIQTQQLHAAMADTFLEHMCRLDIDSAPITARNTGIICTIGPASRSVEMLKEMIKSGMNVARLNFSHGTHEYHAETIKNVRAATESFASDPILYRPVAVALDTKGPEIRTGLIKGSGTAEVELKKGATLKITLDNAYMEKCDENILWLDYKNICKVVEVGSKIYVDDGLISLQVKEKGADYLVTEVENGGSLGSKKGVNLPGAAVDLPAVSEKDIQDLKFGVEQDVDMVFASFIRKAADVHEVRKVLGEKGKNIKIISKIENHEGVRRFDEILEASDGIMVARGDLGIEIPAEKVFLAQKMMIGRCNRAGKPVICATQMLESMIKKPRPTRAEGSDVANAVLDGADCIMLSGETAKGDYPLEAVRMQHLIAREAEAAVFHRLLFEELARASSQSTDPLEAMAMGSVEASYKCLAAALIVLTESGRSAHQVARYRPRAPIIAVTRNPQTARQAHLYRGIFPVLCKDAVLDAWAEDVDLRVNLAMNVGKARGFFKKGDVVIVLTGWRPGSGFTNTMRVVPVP

Compound | target | test | system | conditions | quantity | result
[64Cu+2].c1ccc(CNCc2ccc(CN3CCCN4CCNCCCN(CC4)CC3)cc2)nc1 | CXCR4 |  | NOD/SCID mouse, U87 and U87-stb-CXCR4 xenografts, heart | iv, 240 min, ex vivo | tissue uptake | 1.97 ± 0.09 %ID/g
CCC(=O)N(C)c1ccc(Cl)c(Cl)c1 | KCNH2 (Homo sapiens, UniProt Q12809) | ion current, inhibitor, patch clamp | HEK293 | 5 µM | inhibition | 2.03%
CNC(=O)c1ccc(N2CCN(Cc3ccc4nc(C)c(=O)[nH]c4c3F)CC2)c([18F])n1 | Poly [ADP-ribose] polymerase 1 (Macaca mulatta, UniProt H9FQ77) |  | male rhesus monkey, hippocampus | intravenous, dose not given, baseline PET | radioactivity uptake | 1.05 SUV
N#Cc1cc(C(=O)OCC[18F])c(C(F)(F)F)nc1N1CCN(C(=O)Cc2ccccc2)CC1 | P2Y purinoceptor 12 (P2ry12, Mus musculus, UniProt Q9CPV9) | PET | mouse aged 60 weeks | 11.1 MBq | peak brain SUV | 0.98 ± 0.19
COc1cc(-c2nc3ccccc3s2)cc(CN(C)Cc2ccccn2)c1O | Cu2+ | UV-vis pH titration |  | M2+ + L- = [ML]+ complex | log K | 16.5
[64Cu+2].c1cnc(CNCc2ccc(CN3CCCN4CCNCCCN(CC4)CC3)cc2)nc1 | CXCR4 |  | NOD/SCID mouse, U87 and U87-stb-CXCR4 xenografts, liver | iv, 90 min, no blocking dose, ex vivo | tissue uptake | 61.5 ± 2.75 %ID/g
COc1cc2c(CCNC(C)=O)c[nH]c2cc1OS(=O)(=O)O | Abcg2 (mouse) |  | FVB/N Abcg2-/- male mice | oral, 10 mg/kg melatonin, 1 h | plasma concentration | 21.9 ± 10.7 ng/mL
Cc1cccc(Cn2ncc3c4cc(F)c(CN(C)C)cc4n(C)c3c2=O)n1 | Pyruvate kinase PKM (Rattus norvegicus, UniProt P11980) | enzyme activity, activator | rat, retina | intravitreal, 10 µM vitreous concentration | half-life of fast phase | 60 h
COc1cc(-c2nc3ccccc3s2)cc(CN(Cc2ccccn2)Cc2ccccn2)c1O | Cu2+ |  |  | 50 µM, pH 7.4, 1:1 metal:ligand | pCu | 10.4
C=CC(=O)Nc1cc(Nc2nccc(-c3cn(C)c4ccccc34)n2)c(OCC(F)(F)F)nc1N(C)CCN(C)C | Cytochrome P450 2B6 (CYP2B6, Homo sapiens, UniProt P20813) | enzyme activity, inhibitor | human, liver microsomes | 0.1 µM | activity vs control | 97.8%

A few entries again:
Compound | target | test | system | conditions | quantity | result
CCC(=O)N(C)c1ccc(Cl)c(Cl)c1 | KCNH2 (Homo sapiens, UniProt Q12809) | ion current, inhibitor, patch clamp | HEK293 | 5 µM | inhibition | 2.03%
